Experimental data pooled from the literature.
A part holds a random share of what one study measured. “And” joins repeats or separate records; there may be more than shown.
UniProt P00519, sequence (whole entry, looked up): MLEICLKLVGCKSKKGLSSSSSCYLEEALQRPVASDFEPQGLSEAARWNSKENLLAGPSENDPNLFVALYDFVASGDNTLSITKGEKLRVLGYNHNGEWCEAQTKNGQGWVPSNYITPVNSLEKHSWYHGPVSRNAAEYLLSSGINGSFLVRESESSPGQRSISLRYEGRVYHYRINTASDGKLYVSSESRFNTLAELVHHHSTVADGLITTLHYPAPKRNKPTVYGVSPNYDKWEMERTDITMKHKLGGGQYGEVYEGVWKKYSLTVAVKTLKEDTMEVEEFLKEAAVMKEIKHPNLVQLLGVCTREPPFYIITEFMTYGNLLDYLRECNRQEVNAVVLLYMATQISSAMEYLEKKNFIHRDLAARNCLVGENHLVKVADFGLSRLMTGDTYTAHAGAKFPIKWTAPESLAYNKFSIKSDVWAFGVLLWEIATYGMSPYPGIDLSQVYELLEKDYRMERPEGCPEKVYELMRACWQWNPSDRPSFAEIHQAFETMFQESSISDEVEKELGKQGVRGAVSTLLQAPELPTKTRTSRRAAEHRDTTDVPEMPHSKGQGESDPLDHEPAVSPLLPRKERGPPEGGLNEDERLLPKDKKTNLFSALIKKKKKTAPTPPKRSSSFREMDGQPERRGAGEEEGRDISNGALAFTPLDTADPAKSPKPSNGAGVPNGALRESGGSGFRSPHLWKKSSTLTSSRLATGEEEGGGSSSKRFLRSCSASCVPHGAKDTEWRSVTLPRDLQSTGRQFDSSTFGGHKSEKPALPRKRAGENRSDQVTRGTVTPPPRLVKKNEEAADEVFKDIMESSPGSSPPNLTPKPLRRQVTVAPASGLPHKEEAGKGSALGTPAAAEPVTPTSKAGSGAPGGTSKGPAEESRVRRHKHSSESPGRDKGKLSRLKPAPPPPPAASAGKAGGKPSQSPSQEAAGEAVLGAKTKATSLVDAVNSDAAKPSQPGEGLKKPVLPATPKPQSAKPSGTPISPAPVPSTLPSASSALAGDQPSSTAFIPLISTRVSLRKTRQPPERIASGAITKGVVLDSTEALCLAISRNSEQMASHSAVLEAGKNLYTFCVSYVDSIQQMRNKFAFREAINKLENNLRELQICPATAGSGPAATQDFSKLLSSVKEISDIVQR
UniProt Q8NE63, sequence (whole entry, looked up): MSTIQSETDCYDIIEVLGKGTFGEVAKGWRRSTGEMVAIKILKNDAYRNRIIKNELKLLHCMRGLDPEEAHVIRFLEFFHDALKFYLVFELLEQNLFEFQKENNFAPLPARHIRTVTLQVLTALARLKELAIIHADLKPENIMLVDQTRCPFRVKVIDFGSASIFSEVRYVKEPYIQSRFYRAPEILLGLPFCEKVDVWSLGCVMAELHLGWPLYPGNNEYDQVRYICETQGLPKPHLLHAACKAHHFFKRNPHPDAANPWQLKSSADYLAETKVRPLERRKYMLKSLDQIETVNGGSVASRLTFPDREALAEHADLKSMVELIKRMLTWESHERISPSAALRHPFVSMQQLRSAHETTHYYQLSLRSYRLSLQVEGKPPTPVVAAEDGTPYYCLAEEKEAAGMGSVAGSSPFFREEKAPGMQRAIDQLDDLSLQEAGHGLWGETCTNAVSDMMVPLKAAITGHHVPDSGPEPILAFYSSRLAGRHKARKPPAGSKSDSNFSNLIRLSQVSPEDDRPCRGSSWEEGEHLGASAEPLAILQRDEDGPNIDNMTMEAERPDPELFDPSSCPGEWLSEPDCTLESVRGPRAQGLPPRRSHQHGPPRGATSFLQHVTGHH
UniProt Q16816, sequence (whole entry, looked up): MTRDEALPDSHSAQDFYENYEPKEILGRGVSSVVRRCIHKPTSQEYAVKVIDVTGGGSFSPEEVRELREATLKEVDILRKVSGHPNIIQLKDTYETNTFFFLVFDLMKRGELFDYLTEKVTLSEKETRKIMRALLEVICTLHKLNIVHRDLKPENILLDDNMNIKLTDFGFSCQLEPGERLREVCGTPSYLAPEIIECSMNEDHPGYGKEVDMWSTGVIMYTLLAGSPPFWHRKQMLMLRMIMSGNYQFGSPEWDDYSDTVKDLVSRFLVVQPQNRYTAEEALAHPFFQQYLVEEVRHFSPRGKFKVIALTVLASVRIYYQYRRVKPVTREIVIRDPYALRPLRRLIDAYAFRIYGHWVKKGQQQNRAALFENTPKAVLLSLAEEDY
UniProt O75582, sequence (whole entry, looked up): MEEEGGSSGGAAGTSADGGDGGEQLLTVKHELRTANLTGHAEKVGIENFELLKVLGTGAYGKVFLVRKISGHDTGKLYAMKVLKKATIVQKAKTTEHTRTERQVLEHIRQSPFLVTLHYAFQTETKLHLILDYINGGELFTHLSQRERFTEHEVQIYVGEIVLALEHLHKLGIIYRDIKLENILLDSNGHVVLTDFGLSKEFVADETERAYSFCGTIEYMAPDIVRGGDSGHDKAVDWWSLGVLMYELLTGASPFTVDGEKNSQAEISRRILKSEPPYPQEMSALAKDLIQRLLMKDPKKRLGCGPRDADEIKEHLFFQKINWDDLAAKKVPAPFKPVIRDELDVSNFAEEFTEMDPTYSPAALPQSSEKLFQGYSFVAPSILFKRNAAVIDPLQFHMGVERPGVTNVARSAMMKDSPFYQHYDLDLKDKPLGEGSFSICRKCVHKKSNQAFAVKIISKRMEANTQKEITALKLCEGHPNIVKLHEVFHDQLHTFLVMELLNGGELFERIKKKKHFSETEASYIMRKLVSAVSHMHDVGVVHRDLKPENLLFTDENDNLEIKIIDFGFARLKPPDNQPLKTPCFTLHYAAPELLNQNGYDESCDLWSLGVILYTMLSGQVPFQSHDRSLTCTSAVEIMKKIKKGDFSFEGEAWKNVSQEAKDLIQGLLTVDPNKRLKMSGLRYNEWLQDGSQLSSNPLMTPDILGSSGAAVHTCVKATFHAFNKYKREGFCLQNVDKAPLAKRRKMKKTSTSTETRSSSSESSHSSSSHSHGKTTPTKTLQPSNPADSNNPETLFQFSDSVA
UniProt O15530, sequence (whole entry, looked up): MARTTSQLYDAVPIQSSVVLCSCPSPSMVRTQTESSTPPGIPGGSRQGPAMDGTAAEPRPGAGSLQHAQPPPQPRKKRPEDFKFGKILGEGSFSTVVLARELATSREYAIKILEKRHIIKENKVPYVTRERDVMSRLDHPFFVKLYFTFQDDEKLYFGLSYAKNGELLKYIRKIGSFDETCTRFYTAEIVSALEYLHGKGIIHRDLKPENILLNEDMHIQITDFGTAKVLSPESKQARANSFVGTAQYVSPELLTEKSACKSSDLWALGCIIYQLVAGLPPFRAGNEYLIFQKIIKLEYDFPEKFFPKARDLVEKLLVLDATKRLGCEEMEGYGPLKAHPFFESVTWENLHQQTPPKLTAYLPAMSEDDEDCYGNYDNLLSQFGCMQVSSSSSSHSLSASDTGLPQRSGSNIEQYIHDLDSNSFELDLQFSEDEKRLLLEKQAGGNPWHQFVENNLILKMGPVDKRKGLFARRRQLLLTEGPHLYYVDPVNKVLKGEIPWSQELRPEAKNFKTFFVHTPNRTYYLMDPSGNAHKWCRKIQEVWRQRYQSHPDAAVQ
UniProt O75716, sequence (whole entry, looked up): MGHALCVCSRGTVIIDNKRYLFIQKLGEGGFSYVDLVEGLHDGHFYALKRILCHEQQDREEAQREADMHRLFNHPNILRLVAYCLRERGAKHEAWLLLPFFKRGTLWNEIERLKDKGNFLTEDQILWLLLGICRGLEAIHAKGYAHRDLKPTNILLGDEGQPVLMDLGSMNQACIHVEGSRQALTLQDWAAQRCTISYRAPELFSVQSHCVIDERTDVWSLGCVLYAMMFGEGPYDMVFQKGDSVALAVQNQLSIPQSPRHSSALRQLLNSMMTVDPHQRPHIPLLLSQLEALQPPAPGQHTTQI

Series 1
Target: Muscarinic acetylcholine receptor M1 (CHRM1, Homo sapiens, UniProt P11229)
UniProt P11229, sequence (whole entry, looked up): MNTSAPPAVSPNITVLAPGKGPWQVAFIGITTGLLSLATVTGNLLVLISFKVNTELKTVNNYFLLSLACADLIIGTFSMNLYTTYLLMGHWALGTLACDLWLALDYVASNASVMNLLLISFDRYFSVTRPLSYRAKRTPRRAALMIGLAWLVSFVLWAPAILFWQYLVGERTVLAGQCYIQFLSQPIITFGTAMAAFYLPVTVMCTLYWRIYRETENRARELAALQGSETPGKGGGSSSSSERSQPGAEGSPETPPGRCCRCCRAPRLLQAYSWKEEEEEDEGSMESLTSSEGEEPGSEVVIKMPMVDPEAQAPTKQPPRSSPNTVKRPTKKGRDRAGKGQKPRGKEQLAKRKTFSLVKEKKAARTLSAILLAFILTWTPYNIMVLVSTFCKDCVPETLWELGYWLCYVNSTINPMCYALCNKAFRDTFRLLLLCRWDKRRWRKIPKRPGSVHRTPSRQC
Effect on: ligand displacement
Concentration: 10 µM
Measurement: inhibition
NS(=O)(=O)c1cc(NC(=O)Cc2ccccc2)ccc1Oc1cccc(Cl)c1: 11.4%
COc1cccc(NC(=O)c2nc3scc(CN(C)Cc4ccccc4)c3c(=O)[nH]2)c1: -8.97%
Cc1c(N2CCNCC2)nc2ccc(Br)cc2c1C(=O)NC[C@H](CCC(=O)O)c1ccccc1Cl: 8.42%
O=S(=O)(NC1CCC(c2cc(F)ccc2F)(S(=O)(=O)c2ccc(Cl)cc2)CC1)C(F)(F)F (centres unmarked): -5.38%
CN(C)c1ncnc(-c2ccc3nc(Nc4cc(CN5CCN(C(=O)CC(F)(F)F)CC5)ccn4)[nH]c3c2)c1Cl: 32.1%

Series 2
Compound: COc1ccc2c(c[n+](C)c3c4cc5c(cc4ccc23)OCO5)c1OC
Effect on: enzyme activity
Mode: inhibitor
Concentration: 0.5 µM
Baseline: control
Measurement: remaining activity
Serine/threonine-protein kinase 16 (STK16, Homo sapiens, UniProt O75716): 102%
Phosphorylase b kinase gamma catalytic chain, skeletal muscle/heart isoform (PHKG1, Homo sapiens, UniProt Q16816): 90.4%
Ribosomal protein S6 kinase alpha-5 (RPS6KA5, Homo sapiens, UniProt O75582): 83.3%
Tyrosine-protein kinase ABL1 (ABL1, Homo sapiens, UniProt P00519): 92.7%
3-phosphoinositide-dependent protein kinase 1 (PDPK1, Homo sapiens, UniProt O15530): 98.2%
Homeodomain-interacting protein kinase 4 (HIPK4, Homo sapiens, UniProt Q8NE63): 95.9%

Series 3
SMILES: CC(C)S(=O)(=O)c1ccc2nccc(Nc3ccc4sc(C5CCCC5)nc4c3)c2c1.Cl
Measurement: viability
L929; CCK-8; 12.5 µM, added: zVAD: 105% and 108% and 106% and 103%
L929 RIPK3 knockout; 12.5 µM, added: zVAD: 104% and 103% and 101%
L929 RIPK3 knockout; 3.125 µM: 101% and 102% and 106%
L929; CCK-8; 0.781 µM: 100% and 101% and 102%
L929 RIPK3 knockout; 1.563 µM, added: zVAD: 102% and 105% and 101%
L929; CCK-8; 25 µM: 93.8% and 86% and 89.4% and 88.7%
L929 RIPK3 knockout; 3.125 µM, added: zVAD: 104% and 103% and 101% and 106%
L929 RIPK3 knockout; 50 µM: 65.3% and 62.4% and 63.4%
L929; CCK-8; 12.5 µM: 105% and 112% and 103% and 108% and 111%
L929; CCK-8; 3.125 µM: 101% and 102% and 97.7% and 100%
L929; CCK-8; 0.781 µM, added: zVAD: 96.1% and 96.7% and 98.5%

Further values, each from its own experiment
CC(=O)Oc1ccc(/C=C/c2cc(OC(C)=O)cc(OC(C)=O)c2)cc1  remaining compound (human, microsomes or S9; 2 µM, 0.5 h): 3.81%

Some of these lines once more (series 3):
L929; CCK-8; 25 µM: 93.8% and 86% and 89.4% and 88.7%
L929; CCK-8; 0.781 µM: 100% and 101% and 102%
L929 RIPK3 knockout; 1.563 µM, added: zVAD: 102% and 105% and 101%
L929 RIPK3 knockout; 3.125 µM: 101% and 102% and 106%
